Measurements from different studies.
Each line is one published result; not all experiments were run side by side. ± marks the error that the study gave.
UniProt P0AE52, sequence (whole entry, looked up): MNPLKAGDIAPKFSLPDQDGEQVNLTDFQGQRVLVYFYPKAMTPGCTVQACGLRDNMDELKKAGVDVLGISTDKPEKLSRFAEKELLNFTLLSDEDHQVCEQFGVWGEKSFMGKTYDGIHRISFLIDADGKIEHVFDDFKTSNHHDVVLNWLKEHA

Pegcetacoplan
absorption rate constant, typical (population PK model; human; subcutaneous): 0.037 h⁻¹

GSGAGSETKM
binding intensity (human MAGI1-3/6 PDZ construct (MBP fusion); automated holdup; peptide, crude extract; concentration not given, uncorrected, unit not given; reference: biotin control resin, higher = stronger binding): -0.076

insulin aspart
onset of appearance (ELISA, measured: total insulin aspart; human, type 1 diabetes, serum; subcutaneous, dose not given, least squares mean, single dose): 5.2 min

YEQDPWGVKWWY
serum AST (peptide, mouse, CP model, serum; 0.154 µmol/kg, 4 weeks): no effect

ACDDQNPWRAYLDLLFPTDTLLLDLLW
mean fluorescence intensity (ex vivo fluorescence imaging; peptide, BALB/c mice, 4T1 tumour-bearing, 4T1 tumour; intravenous, 5 nmol, 24 h post-injection; higher = more uptake): 2770 ± 600 a.u.

Neuropeptide Y
retention time (RP-HPLC; HALO Peptide ES-C18 column; 25 µM, formic acid/methanol, 10 min gradient): 9.85 min

glucagon
time to fibrillation (aqueous solution): ~8 h

insulin icodec
participants with adverse events (human mild renal impairment; concentration not given): 42%

GSGAGQITKV
binding intensity (human SCRIB PDZ3-4 tandem (MBP fusion); automated holdup; peptide, crude extract; concentration not given, uncorrected, unit not given; reference: biotin control resin, higher = stronger binding): 0.0585

adrenomedullin
retention time (RP-HPLC; HALO C18 column; 25 µM, formic acid/methanol, 25 min gradient): 14.6 min

human insulin
absorption rate constant 2 (population PK model; healthy human; subcutaneous, 15 IU, euglycaemic glucose clamp): 0.86 h⁻¹

pegcetacoplan
number of TEAEs (measured: infections and infestations; patients with PNH; dose not given, phase Ib trial): 10

human insulin
Tmax (ELISA; pig, anaesthetized, serum; jejunal wall, 20 IU, robotic ingestible pill): 2.32 ± 0.7 h

insulin degludec
apparent volume of distribution (human; subcutaneous, 0.4 IU/kg, 2 FC level, single dose, reference formulation): 33.4 ± 7.6 L

Ubiquitin fragment (Homo sapiens)
pKa (NMR, measured: Lys33): 10.9

ACEEQNPWARYLEWLFPTETLLLEL
contrast index (ex vivo fluorescence imaging; peptide, BALB/c mice, 4T1 tumour-bearing; intravenous, 5 nmol, 2 h post-injection, background-corrected mean fluorescence; reference: tumour over muscle): 3.2 ± 0.9

bcp (Escherichia coli, UniProt P0AE52)
pKa (UV-vis, measured: Cys45; reduced, folded, numbering of the source): 5.76

insulin icodec
dose-normalised AUCτ at steady state (immunoassay; Japanese patients with type 1 diabetes, serum; dose not given, 168 h after last dose, geometric mean total serum): 10800 (nmol·h/L)/(U/kg)

ACEQNPIYWARYADWLFTTPLLLLDLALLVDADEGT
contrast index (ex vivo fluorescence imaging; peptide, BALB/c mice, 4T1 tumour-bearing; intravenous, 5 nmol, 4 h post-injection, background-corrected mean fluorescence; reference: tumour over muscle): 5.2 ± 0.6

CAMK2A C6S/C280S (Homo sapiens)
pKa (chemical modification, mass spectrometry, measured: Cys289; 37 °C, apparent, reduced thiol): 9.2

neuropeptide Y 3-35
postpreparative stability (extracted samples in autosampler; 5 pM, 72 h, 10 °C): 65 % recovery
